{"data": "Earlier results, collected from citations in different studies", "note": "Protocols differ between the studies behind these lines.", "sequence of UniProt Q99759 (whole entry, looked up)": "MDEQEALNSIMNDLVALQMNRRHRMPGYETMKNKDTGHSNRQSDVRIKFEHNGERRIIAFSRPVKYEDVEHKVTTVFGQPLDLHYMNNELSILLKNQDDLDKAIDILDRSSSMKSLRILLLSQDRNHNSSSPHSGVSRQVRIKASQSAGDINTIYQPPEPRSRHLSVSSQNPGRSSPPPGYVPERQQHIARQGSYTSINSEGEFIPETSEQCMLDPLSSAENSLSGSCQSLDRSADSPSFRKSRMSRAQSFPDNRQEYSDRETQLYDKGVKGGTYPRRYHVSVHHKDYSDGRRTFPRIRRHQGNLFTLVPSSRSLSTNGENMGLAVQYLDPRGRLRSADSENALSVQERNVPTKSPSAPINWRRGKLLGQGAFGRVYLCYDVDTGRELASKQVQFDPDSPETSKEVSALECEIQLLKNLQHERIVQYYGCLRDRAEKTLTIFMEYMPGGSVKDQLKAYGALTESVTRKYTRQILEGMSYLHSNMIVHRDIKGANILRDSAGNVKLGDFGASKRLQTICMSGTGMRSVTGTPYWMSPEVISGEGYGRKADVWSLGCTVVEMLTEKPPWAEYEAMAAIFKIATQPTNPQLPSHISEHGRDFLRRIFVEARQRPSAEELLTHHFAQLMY"}
{"SMILES": "COc1ccc(F)cc1C(=O)NCc1ccc(-c2nn([C@@H](C)C(F)(F)F)c(N)c2C(N)=O)cc1", "target or system": "BTK human", "test": "target occupancy", "test system": "human patients", "conditions": "200 mg daily, steady-state trough", "quantity": "inhibition", "value": "96%"}
{"SMILES": "CC(C)[C@H](CO)Nc1nc(Nc2cc(N)cc(Cl)c2)c2ncn(C(C)C)c2n1", "target or system": "CSNK1G1", "test": "kinase activity, inhibitor", "conditions": "0.5 µM", "quantity": "inhibition", "value": "74%"}
{"SMILES": "CC(C)Oc1ccc(-c2c[nH]cc2CN(C)CCN)cc1", "target or system": "PRMT5", "test": "enzyme activity, inhibitor", "conditions": "concentration not given", "quantity": "inhibition", "value": "inactive"}
{"SMILES": "CCS(=O)(=O)N(C)[C@H]1c2cc(C#N)ccc2OC(C)(C)[C@@H]1O (racemic)", "target or system": "Kv7.1 potassium channel", "test": "manual patch clamp", "conditions": "10 µM", "quantity": "inhibition", "value": "43.2%"}
{"SMILES": "N=C(N)c1ccc(Nc2ccc(-c3cc4ccc(C(=N)N)cc4[nH]3)cc2)cc1", "target or system": "PRMT8", "test": "enzyme activity, inhibitor", "conditions": "concentration not given", "quantity": "inhibition", "value": "inhibited"}
{"SMILES": "CC(C)n1cnc2c(Nc3cccc(Cl)c3)nc(NCCO)nc21", "target or system": "CSNK1G1", "test": "kinase activity, inhibitor", "conditions": "0.5 µM", "quantity": "inhibition", "value": "84%"}
{"SMILES": "CNC(C)C1CCC(N)C(OC2C(N)CC(N)C(OC3OCC(C)(O)C(NC)C3O)C2O)O1 (stereo not drawn)", "target or system": "Acinetobacter baumannii", "test system": "clinical isolate RKI-No_523/16", "quantity": "MIC", "value": "> 8 µg/mL"}
{"SMILES": "CNC(=O)c1c(C)oc2cc(Oc3ncnc4cc(OC)c(OC)cc34)ccc12", "target or system": "VEGFR-2 (mouse)", "test": "receptor phosphorylation", "test system": "mouse", "conditions": "oral, 2.5 mg/kg single dose", "quantity": "inhibition", "value": "> 80%"}
{"SMILES": "Nc1cc(C(F)(F)F)c(-c2nc(N3CCOCC3)nc(N3CCOCC3)n2)cn1", "target or system": "MAP3K3 (Homo sapiens, UniProt Q99759)", "test": "enzyme activity", "conditions": "10 µM", "scale": "relative to: untreated", "quantity": "remaining activity", "value": "79%"}
{"SMILES": "CC1(C)S[C@@H]2[C@H](NC(=O)[C@H](N)c3ccccc3)C(=O)N2[C@H]1C(=O)O", "target or system": "Acinetobacter baumannii", "test system": "clinical isolate RKI-No_523/16", "quantity": "MIC", "value": "> 16 µg/mL"}
{"SMILES": "Cn1c(=O)oc2ccc(-c3ccc(C[C@@H](C#N)NC(=O)[C@@H]4CNCCCO4)cc3)cc21", "target or system": "neprilysin", "test system": "healthy human, blood", "conditions": "25 mg once daily", "quantity": "inhibition", "value": "49%"}
{"SMILES": "Cc1cccc(-c2[nH]c(CNc3ccccc3F)nc2-c2ccc3ncnn3c2)n1", "target or system": "OATP1B3 and OATP2B1", "test": "transport activity, inhibitor", "conditions": "up to 100 µM", "quantity": "inhibition", "value": "no inhibition"}
{"note": "A few entries again:"}
{"SMILES": "CC(C)Oc1ccc(-c2c[nH]cc2CN(C)CCN)cc1", "target or system": "PRMT5", "test": "enzyme activity, inhibitor", "conditions": "concentration not given", "quantity": "inhibition", "value": "inactive"}
{"SMILES": "CCS(=O)(=O)N(C)[C@H]1c2cc(C#N)ccc2OC(C)(C)[C@@H]1O (racemic)", "target or system": "Kv7.1 potassium channel", "test": "manual patch clamp", "conditions": "10 µM", "quantity": "inhibition", "value": "43.2%"}
